Measurements collected from several papers.
Lines come from different studies, so protocols differ.
HDAC3: Histone deacetylase 3 (HDAC3, Homo sapiens, UniProt O15379)
UniProt O15379, sequence (whole entry, looked up): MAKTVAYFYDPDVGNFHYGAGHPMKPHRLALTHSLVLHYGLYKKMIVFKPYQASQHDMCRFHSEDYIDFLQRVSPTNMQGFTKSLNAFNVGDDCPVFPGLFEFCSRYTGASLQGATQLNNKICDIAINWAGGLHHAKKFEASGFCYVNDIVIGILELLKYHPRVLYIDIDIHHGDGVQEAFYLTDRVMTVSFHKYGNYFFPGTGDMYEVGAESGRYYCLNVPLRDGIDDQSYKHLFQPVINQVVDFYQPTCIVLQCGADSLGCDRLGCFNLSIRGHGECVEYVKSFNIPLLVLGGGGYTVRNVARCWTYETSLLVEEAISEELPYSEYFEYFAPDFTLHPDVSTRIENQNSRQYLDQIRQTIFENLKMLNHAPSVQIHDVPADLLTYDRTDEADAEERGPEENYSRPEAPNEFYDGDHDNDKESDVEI

Compound	target	assay	system	conditions	measurement	value
O=C(NO)c1cnc(NC2(c3cccc(F)c3)CCCCC2)nc1	HDAC3	inhibitor, competition pulldown	SW620 and MV4-11 lysate	1 h	Kd	> 30200 nM
Cc1c(COc2cc(OCc3cccc(C#N)c3)c(CNC(C)(CO)CO)cc2Cl)cccc1-c1cccc(OCCCCCCC(=O)NO)c1	HDAC3	enzyme activity, inhibitor	–	–	IC50	48.9 nM
CC[C@H](C)[C@@H]1NC(=O)[C@H](Cc2ccccc2C(F)(F)F)NC(=O)CCSCc2cccc(n2)CSCCCNC(=O)[C@H](CCCCCC(=O)NO)NC1=O	HDAC3	enzyme activity, inhibitor, fluorescence	–	–	Ki	4 nM
O=C(/C=C/c1cccc(OS(=O)(=O)Oc2ccc(Br)cc2)c1)NO	Histone deacetylase 3, with NCoR2 DAD (HDAC3, Homo sapiens, UniProt O15379)	enzyme activity, inhibitor, fluorogenic	–	–	Ki	20 nM
Cc1c(COc2cc(OCc3cccc(C#N)c3)c(CNC(CO)(CO)CO)cc2Cl)cccc1-c1cccc(OCCCCCCC(=O)NO)c1	HDAC3	enzyme activity, inhibitor	–	–	IC50	51.2 nM
Cc1nc2c(F)cc(-c3nc(Nc4ccc(CNC(=O)CCCCCCC(=O)NO)cc4)ncc3F)cc2n1C(C)C	HDAC3	enzyme activity, inhibitor	–	–	IC50	56 nM
O=C(CCc1ccc(CNC(C(=O)OC2CCCC2)C2CCCCC2)cn1)NO (stereo not shown)	HDAC3	enzyme activity, inhibitor	–	–	IC50	692 nM
C[S@@](=N)(=O)c1ccc(C(=O)Nc2cc(-c3ccc(F)cc3)ccc2N)cc1	Histone deacetylase 3, with NCoR2 (HDAC3, Homo sapiens, UniProt O15379)	–	–	3 h	IC50	1200 nM
Cc1c(COc2cc(OCc3cccc(C#N)c3)c(CNCCO)cc2Cl)cccc1-c1cccc(OCCCCCCC(=O)NO)c1	HDAC3	enzyme activity, inhibitor	–	–	IC50	56.9 nM
COc1ccc(C(=O)NO)cc1NC(=O)c1ccc(-c2ccccc2)cc1	HDAC3	inhibitor, competition pulldown	SW620 and MV4-11 lysate	1 h	Kd	> 30200 nM

For quick reference, copied from above:
Compound	target	assay	system	conditions	measurement	value
O=C(/C=C/c1cccc(OS(=O)(=O)Oc2ccc(Br)cc2)c1)NO	Histone deacetylase 3, with NCoR2 DAD (HDAC3, Homo sapiens, UniProt O15379)	enzyme activity, inhibitor, fluorogenic	–	–	Ki	20 nM
